# Published values from different studies.
# Every numbered part comes from another study and shows a few of its results, in no order.
# Chain of UniProt O00571 (132-607, looked up): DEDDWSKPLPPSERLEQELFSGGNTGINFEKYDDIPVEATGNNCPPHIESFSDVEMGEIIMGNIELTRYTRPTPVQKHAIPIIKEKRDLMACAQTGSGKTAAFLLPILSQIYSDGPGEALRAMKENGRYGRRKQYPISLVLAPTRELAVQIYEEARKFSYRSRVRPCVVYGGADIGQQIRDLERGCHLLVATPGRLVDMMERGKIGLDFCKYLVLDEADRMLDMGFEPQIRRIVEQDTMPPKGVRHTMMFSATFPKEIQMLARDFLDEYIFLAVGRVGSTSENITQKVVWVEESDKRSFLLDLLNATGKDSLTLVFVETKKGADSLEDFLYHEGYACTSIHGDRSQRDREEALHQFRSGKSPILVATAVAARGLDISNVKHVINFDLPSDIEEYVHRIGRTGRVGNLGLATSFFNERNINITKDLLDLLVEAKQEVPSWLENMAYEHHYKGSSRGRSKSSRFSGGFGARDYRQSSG

# Set 1
# Target: Replicase polyprotein 1ab, main protease (rep, Severe acute respiratory syndrome coronavirus 2, UniProt P0DTD1)
# Effect on: enzyme activity
# Action: inhibitor
# Concentration: 20 µM
# Setting: hit confirmation
Compound,inhibition [%]
CCOC(=O)C1=C(N)Oc2ccc(Br)cc2C1C(C#N)C(=O)OCC (centres unmarked),20.2
Nc1c[n+](N2CCOCC2)no1,60.4
COC(=O)C1=C(C)NC(C)=C(C(=O)OCC(C)C)C1c1ccccc1[N+](=O)[O-] (centres unmarked),30.8

# Set 2
# Target: RING finger protein unkempt homolog, zinc fingers 1-6, GST-SBP tag (UNK, Homo sapiens, UniProt Q9C0B0, residues 30-357)
# Technique: RNA Bind-n-Seq
# Molecule type: RNA
# Medium: in vitro
# Concentration: not given
# Setting: RNA with constant flanks, human-mouse chimeric sites, ends assumed
# Baseline: input RNA pool
# Direction: higher = stronger binding
# Shared flanks, not repeated: GGGAGUUCUACAGUCCGACGAUC … CAACAGAGGAUUGAGCAUCA
# Construct (chain): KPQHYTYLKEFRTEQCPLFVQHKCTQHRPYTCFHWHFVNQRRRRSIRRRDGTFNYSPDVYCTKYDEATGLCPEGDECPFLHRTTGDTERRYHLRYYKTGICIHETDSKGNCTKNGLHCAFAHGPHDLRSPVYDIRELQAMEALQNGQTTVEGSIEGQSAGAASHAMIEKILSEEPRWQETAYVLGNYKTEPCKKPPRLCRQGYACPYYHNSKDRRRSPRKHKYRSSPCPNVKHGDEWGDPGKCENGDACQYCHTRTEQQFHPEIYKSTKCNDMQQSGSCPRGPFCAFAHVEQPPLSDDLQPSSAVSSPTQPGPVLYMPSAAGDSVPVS
Oligonucleotide,bound/input enrichment [ratio]
GAUAGGAAAAGCUUGUUGGAGACCCGCUUGCAUGUCACUGGUAGAGACCUGAGGUGUAAAAUAGCUGAAACUUUCGGAUUUCAAGAAAAUUACAUCAAGAUCGUAAUAAAUAAGAAACAG,0.633
UCUUAACUUAUUCAUUUAACUUAUUUUUAUAGCUAGAUAAAUAUUGUUAGUCUUAGUCAAUAGCUCACAUUUUUUGAGAAGCAUGCCCUCCCUGUCCAUUUGUCUUACAAUAACACUCAG,22.4
UGACAAGGGCACUGCAGAGCCAUGCCUUUCUUGGACAUACAGAAAAAGCUGGGCAUCAGCCUGGACCGGCACUUUAUGUUCCUAAGCGCAGAACAGCCCUAUAAGAAGGCUGGUCGAUGC,0.0775
UUUGUAUUUAUGCUAAGCACGCGUGCUGGUGGUCUGGGCAUCAAUCUUGCAACUGCUGAUGUAGUCAUUUUAUAUGACUCAGAUUGGAAUCCGCAAGUAGAUCUUCAGGCUAUGGACCGU,0.157
CACACACUCUUCUGUGGGACCCUCAUCUUGCAGGCCCGAGCCUACGUGGGACCGCACGUCCUGGCAGUGGUGACCCGCACAGGGUUCUGCACGGCAAAAGGGGGCCUGGUGAGCUCCAUC,0.0593
GAUAAGAAAAGCUUGUUGGAGACCCGCUUGCAUGUCACUGGUAGAGAACUGAGGUCCCAAAUAGCUGAAACUUUCGGAUUUCAAGAAAAUUACAUCAAAAUUGUCAUAAAUAAGAAACAG,1.01
CUGUUUUGACAGCCACACAAUCUUGGCAUGUAUUAAGAAAAAAAAAAAUCCCUGUUGAAGUAGUUUUUCCACCUAUCAGCACUGAGUAAAUGCCAUAACUCCGCGGAAAUGGUCUAAAUA,0.314
ACUCUUGACUCUUUCCAUCCUCUUCCUUUCCCUCUUGAUAUUCAAGGCCAUGAAUCCCAAAAUAACAGUCUUAGUGGCUAGCACCCAAACAGAGGUGGGUGCCAUCCACCCCAGUGUCUC,0.475

# Set 3
# Target: Ras GTPase-activating protein-binding protein 1, full length (G3BP1, Homo sapiens, UniProt Q13283)
# Chain of UniProt Q13283 (whole entry, looked up): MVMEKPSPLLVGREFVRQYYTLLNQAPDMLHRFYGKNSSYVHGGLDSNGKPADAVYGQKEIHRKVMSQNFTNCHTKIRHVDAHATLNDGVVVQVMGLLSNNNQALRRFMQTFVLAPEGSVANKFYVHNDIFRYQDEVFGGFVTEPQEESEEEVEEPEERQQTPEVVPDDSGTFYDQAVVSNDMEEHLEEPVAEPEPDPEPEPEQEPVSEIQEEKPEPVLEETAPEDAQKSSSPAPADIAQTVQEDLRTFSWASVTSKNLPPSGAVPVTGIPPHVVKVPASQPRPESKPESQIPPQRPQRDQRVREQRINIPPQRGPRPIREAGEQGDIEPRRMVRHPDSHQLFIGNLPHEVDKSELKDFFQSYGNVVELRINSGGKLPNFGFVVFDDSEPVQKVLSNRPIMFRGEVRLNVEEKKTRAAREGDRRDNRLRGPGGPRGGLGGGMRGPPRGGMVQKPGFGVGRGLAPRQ
# Technique: RNA Bind-n-Seq
# Molecule type: RNA
# Medium: in vitro
# Concentration: 200 nM
# Setting: whole 134-nt RNA, ends assumed
# Together with: 150 mM LiCl
# Baseline: input library
# Direction: higher = stronger binding
# All molecules: 7-deaza-guanosine replaces G
# Shared flanks, not repeated: GGGAGUUCUACAGUCCGACGAUC … UGGAAUUCUCGGGUGUCAAGG
Oligonucleotide,log2 enrichment
UGUCCCUGGUGGCAUGCGGGGAGGAAGAGGUGGCCUCAUGGAUCGUGGUGGUCCCGGUGGAAUGUUCAGAGGUGGCCGUGGUGGAGACAG,0.467
UCAAGUCCUGUGCUACACAUCGUAUGUACCGAAUCGGGAAAGGAAAGGGGAAAGGAAAGUAUUAUGUUACGCCGUUCGGAUCUGCACUUC,-0.649
UCCUGUGCUACACAUCGUAUGUACCGAAUCGGGGAAAAAAGGAAAAAAGGAAAAAAGGGAAAGUAUUAUGUUACGCCGUUCGGAUCUGCA,0.112
UGGCCAUGGUGGCAUGCGGGGAGGAAGAGGUGGCCUCAUGGAUCGUGGUGGUCCCGGUGGAAUGUUCAGAGGUGGCCGUGGUGGAGACAG,0.271
UCAAGUCCUGUGCUACACAUCGUAUGUACCGAAUCGGAAAGGAAAAAAAGGAGGAAAGUAUUAUGUUACGCCGUUCGGAUCUGCACUUCC,0.123
UGGCCCUGGUGGCAUGCGGGGAGGAAGAGGUGGCCUCAUGGAUCGUGUUGGUCCCGGUGGAAUGUUCAGAGGUGGCCGUGGUGGAGACAG,0.195
CAAGUCCUGUGCUACACAUCGUAUGUACCGAAUCGGGUUUUUUUGGGAGGGUGGGAAAGUAUUAUGUUACGCCGUUCGGAUCUGCACUUC,-0.0546
UCCUGUGCUACACAUCGUAUGUACCGAAUCGGGGUUUUUUUGGGGUGGGGAAAAAGGGGAAAGUAUUAUGUUACGCCGUUCGGAUCUGCA,-0.614

# Set 4
# Target: Replicase polyprotein 1ab, nsp13 helicase (rep, Severe acute respiratory syndrome coronavirus 2, UniProt P0DTD1)
# Action: inhibitor
# Concentration: 20 µM
SMILES,inhibition [%]
COc1[nH]c2ccc(F)cc2c1C(=O)OCC1CCN(CCNS(C)(=O)=O)CC1,2.95
COc1cc2c(cc1F)C(c1ccccc1Cl)=Nc1c(n[nH]c1C)N2,6.69
C=CCOC(Cn1ccnc1)c1ccc(Cl)cc1Cl (centres unmarked),2.65
CCc1cc(C(N)=S)ccn1,-0.89
COc1ccc(S(=O)(=O)Nc2c(C)cc(C)cc2C)cc1,2.34
CC(=O)/N=c1/sc(S(N)(=O)=O)nn1C,-2.86
NC(=O)CCCCn1ccc(NC(N)=NCC(F)(F)F)n1,4.45
CC(=O)Nc1cccc2c1c(Sc1ccc(Cl)cc1)c(C)n2CC(=O)O,1.18
CCCC(C)C1(CC)C(=O)NC(=O)NC1=O (centres unmarked),-4.38
CCCCN1CCC(CNC(=O)c2c3n(c4ccccc24)CCCO3)CC1,7.02
CNNCc1ccc(C(=O)NC(C)C)cc1,5.21
CC(C)OC(=O)C(C)(C)Oc1ccc(C(=O)c2ccc(Cl)cc2)cc1,-4.32
N#CC(=C(/N)Sc1ccccc1N)/C(C#N)=C(\N)Sc1ccccc1N,4.12
OC[C@H]1O[C@@H](Oc2cc(O)cc(/C=C/c3ccc(O)cc3)c2)[C@H](O)[C@@H](O)[C@@H]1O,1.22
O=C(O)/C=C/CO,6.96
CC(C)=CCC[C@](C)(O[C@@H]1O[C@H](CO)[C@@H](O)[C@H](O)[C@H]1O)[C@H]1CC[C@]2(C)[C@@H]1[C@H](O)C[C@@H]1[C@@]3(C)CC[C@H](O)C(C)(C)[C@@H]3CC[C@]12C,4.6
CC(=O)NS(=O)(=O)c1ccc(NC(=O)c2ccccc2C(=O)O)cc1,-3.21
C[C@@H]1O[C@@H]1P(=O)(O)O,0.65
Cn1cnnc1Sc1c([N+](=O)[O-])ncn1C,12.2
CCCC(C(=O)OCCN(CC)CC)(c1ccccc1)c1ccccc1,-3.68
CCOc1ccc(Cc2cc([C@@H]3O[C@H](SC)[C@@H](O)[C@H](O)[C@H]3O)ccc2Cl)cc1,7.54
O=C(CN1C(=O)C2(CCCC2)NC[C@H]1c1cc(F)cc(F)c1)Nc1ccc2c(c1)C[C@@]1(C2)C(=O)Nc2ncccc21,5.83
CN(C)C(=O)COC(=O)Cc1ccc(OC(=O)c2ccc(NC(=N)N)cc2)cc1,4.11
NS(=O)(=O)c1cc2c(cc1C(F)(F)F)NC(Cc1ccccc1)NS2(=O)=O (centres unmarked),0.78
CC(CCc1ccccc1)NCC(O)c1ccc(O)c(C(N)=O)c1 (centres unmarked),-0.63

# Set 5
# Cell line: HEK-293T
# Effect on: pseudovirus infection
# Technique: FDA-approved drug library screen
# Organism: VSV pseudotyped with SARS-CoV-2 spike
# Concentration: 10 µM
# Time: 16 h
# Baseline: vehicle-treated
Compound,GFP-positive cells [%]
CCCCc1ncc(/C=C(\Cc2cccs2)C(=O)O)n1Cc1ccc(C(=O)O)cc1,99.9
O=C1c2c(O)ccc(O)c2C(=O)c2c(NCCNCCO)ccc(NCCNCCO)c21,113
CN1CCN2c3ncccc3Cc3ccccc3C2C1 (centres unmarked),111

# Set 6
# Target: Hepatocyte nuclear factor 3-alpha (Foxa1, Mus musculus, UniProt P35582, residues 1-468, full length assumed)
# Chain of UniProt P35582 (whole entry, looked up): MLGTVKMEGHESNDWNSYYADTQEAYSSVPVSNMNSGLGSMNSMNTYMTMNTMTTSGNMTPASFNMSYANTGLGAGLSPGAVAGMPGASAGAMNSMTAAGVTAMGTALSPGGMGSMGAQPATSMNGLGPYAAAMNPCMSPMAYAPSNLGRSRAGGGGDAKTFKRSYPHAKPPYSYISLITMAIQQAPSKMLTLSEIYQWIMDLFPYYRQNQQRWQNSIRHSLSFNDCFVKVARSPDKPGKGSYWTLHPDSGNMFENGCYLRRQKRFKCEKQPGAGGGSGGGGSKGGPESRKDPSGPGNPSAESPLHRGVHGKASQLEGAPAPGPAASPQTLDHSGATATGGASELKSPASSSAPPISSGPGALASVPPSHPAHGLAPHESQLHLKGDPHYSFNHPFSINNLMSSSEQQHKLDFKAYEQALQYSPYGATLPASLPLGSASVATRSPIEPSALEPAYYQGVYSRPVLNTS
# Technique: EMSA with sequencing
# Molecule type: double-stranded DNA, one strand shown
# Medium: in vitro
# Concentration: 10 and 20 nM
# Setting: whole designed probe, mean of two concentrations, ends assumed
# Baseline: negative control set to 0
# Direction: higher = stronger binding
# Shared flanks, not repeated: GTGAGCGGTGCCCATTGATGGGGAAC … TTTCACTGGGATCGTGGGGAC
Oligonucleotide,normalised bound fraction
ATCTTCCCCCTCTTCCTTGCCCCACCAGCTCACCTTCCCGGGTTATTTGCAGATAGGAAAATAAATAAAGCCGGCATTCGTTAACGCAGTTCTGGCGCAAACTGCTGTTTGCTCTGGATCTAACATGGTCCTTTGGCGACGCCAGGCTCCGGGAGAGCAAAGCACCGTGTCAGGGCCATGATCCGGGCTCGCC,0.347 ratio
CCCTCATCCTGGGTGTCGGGGTGGGAGGTGTTCTCATCATGAATGGGAGGCGTACCCAGATCCAGCTCTGCCTTTTTTTAACCAAACCAGAGTGTAAACAAATGGCTGTTAAGTGACTCACCATCGACATAGCAAGATATGATACATGCCAGGAGAGAAAAAGAAAGTGCTGATGGAAAAATAATCTCATTAG,0.329 ratio
TAAAACCCGGTGACTCTTTTGCACATTTAATTTGAGAACAGGTGAACTAGCTAGATGGATGTTCTCCAGGAAACACTTCTAAGGTGAAAAAGATGTTGACTCACGCTTTCTCCTGATCTGGCCACCAGGTGGCACTGACAAGCTGGGGCGACTTCGTTGTGGGCAGAGGCGGGACAGATAATTAGGCAGCCTT,-0.00482 ratio
AATGTGAGCCATCTCCCGACACTCCGAGTTAATCTATAATGGAGTATTAGCACTGAGACACTGTATATGCCCCTGTCATCCTTTCCCCCAAAGTAATCTAGGGAAAGCCACACAGGCTTTAACACATAATACCTTACTTAATTCCATCAAACAGTGTCCTGAGACTCAGGATTGATAAAATACTGCAGTTCAA,-0.0422 ratio
TCCTGGCAGCACAAACGACTGAATAACAATTAAACAAAACAGGACAGTCTCCGTGTTTCAAAATGCGCATTTAAACCTAAAAGAAACACGGTGTGTTTACTTTCTGAGCCTGGCCTTCCCTGGGTGCACAGTGAGCCACTTCTGAAAGCGTATGGGCACACCCGCTACAGAAACCAGCTTACACTGGCTCGGT,0.367 ratio

# Set 7
# Oligonucleotide: GCAC
# Technique: RNA Bind-n-Seq
# Molecule type: RNA
# Medium: in vitro
# Setting: 4-mer, random 30-nt RNA, single round
# Baseline: input library
# Direction: higher = stronger binding
# EIF4A1: Eukaryotic initiation factor 4A-I (EIF4A1, Homo sapiens, UniProt P60842, residues 1-406, full length assumed)
# Chain of UniProt P60842 (whole entry, looked up): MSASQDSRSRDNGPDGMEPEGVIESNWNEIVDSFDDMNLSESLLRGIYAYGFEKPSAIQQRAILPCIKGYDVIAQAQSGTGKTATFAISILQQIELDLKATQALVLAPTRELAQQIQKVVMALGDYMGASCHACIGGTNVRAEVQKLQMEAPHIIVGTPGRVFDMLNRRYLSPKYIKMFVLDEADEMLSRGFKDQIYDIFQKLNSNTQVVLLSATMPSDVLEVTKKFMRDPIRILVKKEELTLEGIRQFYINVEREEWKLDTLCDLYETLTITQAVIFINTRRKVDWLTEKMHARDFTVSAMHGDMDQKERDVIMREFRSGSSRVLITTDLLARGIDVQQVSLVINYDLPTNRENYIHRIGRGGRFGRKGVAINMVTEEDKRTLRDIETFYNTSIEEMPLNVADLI
target,concentration,together with,4-mer enrichment [fold]
EIF4A1,90 pmol,"3 µM DMDA-PatA, 2 mM ADP, 2 mM phosphate",0.632
"ATP-dependent RNA helicase DDX3X, helicase core (DDX3X, Homo sapiens, UniProt O00571, residues 132-607)",not given,"RocA, ADP, phosphate",0.72
EIF4A1,15 pmol,"DMSO vehicle, 2 mM AMP-PNP",0.864
EIF4A1,not given,"RocA, ADP, phosphate",0.704

# For quick reference, copied from above (set 2):
Oligonucleotide,bound/input enrichment [ratio]
CACACACUCUUCUGUGGGACCCUCAUCUUGCAGGCCCGAGCCUACGUGGGACCGCACGUCCUGGCAGUGGUGACCCGCACAGGGUUCUGCACGGCAAAAGGGGGCCUGGUGAGCUCCAUC,0.0593
GAUAAGAAAAGCUUGUUGGAGACCCGCUUGCAUGUCACUGGUAGAGAACUGAGGUCCCAAAUAGCUGAAACUUUCGGAUUUCAAGAAAAUUACAUCAAAAUUGUCAUAAAUAAGAAACAG,1.01
CUGUUUUGACAGCCACACAAUCUUGGCAUGUAUUAAGAAAAAAAAAAAUCCCUGUUGAAGUAGUUUUUCCACCUAUCAGCACUGAGUAAAUGCCAUAACUCCGCGGAAAUGGUCUAAAUA,0.314
ACUCUUGACUCUUUCCAUCCUCUUCCUUUCCCUCUUGAUAUUCAAGGCCAUGAAUCCCAAAAUAACAGUCUUAGUGGCUAGCACCCAAACAGAGGUGGGUGCCAUCCACCCCAGUGUCUC,0.475
